Results of several laboratories.
Compare with care: the assays were run in different laboratories. ± gives the spread as reported.

Compound	target or system	assay	test system	setting	scale	endpoint	value
O=C(O)/C=C/c1ccc(O)c(O[C@@H]2O[C@H](C(=O)O)[C@@H](O)[C@H](O)[C@H]2O)c1			human plasma	median		plasma concentration	13.6 nM
C=CC(=O)NC1CCN(c2ncc3ncnc(Nc4ccc(Oc5ccc6c(c5)ncn6C)c(C)c4)c3n2)CC1		item: eye disorders (SOC)	human male	oral, dose not given, CTCAE on-treatment AEs		adverse events incidence	0%
COc1cc2c(c(O)c1OC)C(=O)c1c(cc(C)c(O[C@@H]3O[C@H](CO)[C@@H](O)[C@H](O)[C@H]3O)c1OC)C2=O	HepaRG co-cultured with HK-2	MTT		16.67 µM, 48 h	baseline: untreated control	cell viability	89.6 ± 4.78%
C[C@@H](Oc1ccc(S(C)(=O)=O)cc1C(=O)N1C[C@@H]2C[C@]2(c2cc(C(F)(F)F)on2)C1)C(F)(F)F		LC-MS/MS	young human subjects, plasma	oral, 75 mg twice daily, steady state, multiple doses		Vz/F	383 L
CN(C)c1cc(NC(=O)CNC(C)(C)C)c(O)c2c1C[C@H]1C[C@H]3[C@H](N(C)C)C(O)=C(C(N)=O)C(=O)[C@@]3(O)C(O)=C1C2=O		starch gel membrane permeability	Gram-negative envelope surrogate	200 µM, 60 min, pH 7.4		amount permeated	2.54 nmol
O=C1CCC(N2Cc3cc(CO)c(F)cc3C2=O)C(=O)N1 (stereo not drawn)			cynomolgus monkey, male	oral, 0.3 mg/kg parent drug, 0.25 h		plasma concentration	0.3 ng/mL
O=c1cc(-c2ccccc2)oc2ccccc12			human plasma	median, both sexes		plasma concentration	1290 nM
O=C(Nc1nc2cccc(-c3ccc(CN4CCS(=O)(=O)CC4)cc3)n2n1)C1CC1		item: lipase increased	human rheumatoid arthritis patients	oral, 300 mg once daily, 4 weeks, regardless of relatedness		treatment-emergent adverse events	0%
Cc1nc(-c2ccc(OCC(C)C)c(C#N)c2)sc1C(=O)O			human, plasma	oral, 20 mg once daily, together with: verinurad 2.5 mg		AUC(0-24)	2570 ng·h/mL
CC(C)c1nc(CN(C)C(=O)N[C@@H](CCN2CCOCC2)C(=O)N[C@H](CC[C@H](Cc2ccccc2)NC(=O)OCc2cncs2)Cc2ccccc2)cs1			human	oral, 150 mg, drug interaction trial		drug-related TEAE	23.1%
Cc1ccc(Sc2ccccc2N2CCNCC2)c(C)c1		item: postural dizziness	healthy adult women	oral, 10 mg daily, 12 days		participants with TEAE	0%
Cc1cc(O)c2c(c1)C(=O)c1cccc(O)c1C2=O	HepaRG co-cultured with HK-2	MTT		66.67 µM, 48 h	baseline: untreated control	cell viability	67.7 ± 6.85%
O=C(O)CCC(=O)O.[2H]C([2H])([2H])Oc1cc(C)c2[nH]ccc2c1CN1CC[C@@H](C2CC2)C[C@H]1c1ccc(C(=O)O)cc1			healthy Chinese subjects	400 mg, single ascending dose		TEAE decreased white cells	0%
CN(C(=O)n1cnc(-c2cccnc2)c1)C1CCCCC1			Wistar rat, cerebellum	oral, 10 mg/kg/day of BIA 10-2474, 48 h, repeated 5 days		concentration	5.8 ± 0.1 ng/g
O=C1NCCc2nc(OCc3cccc(F)c3)ccc21		modified Irwin test	Sprague-Dawley rat, male	oral, 100 mg/kg, 30 min	higher = stronger effect	pinna reflex loss score	0.4
Cc1onc(-c2ccccc2)c1-c1ccc(S(N)(=O)=O)cc1	COS-7			100 µM, 24 h, 0.1% DMSO, unit not given	baseline: control	necrosis	1.01 ± 0.56
CCOc1c([C@H](C)n2nc(C)c3c(N)ncnc32)cc(Cl)c(F)c1[C@@H]1CNC(=O)C1			patients with B-cell malignancies, plasma	oral, 20 mg, day 15, all cohorts, monotherapy		half-life	9.6 ± 3 h
COC(=O)c1cn(C)c2ccc(-c3cccnc3)cc12	COS-7			30 µM, 24 h, 0.1% DMSO, unit not given	baseline: vehicle control	necrotic cells	0.76 ± 0.23
Cc1c2oc3c(C)ccc(C(=O)N[C@@H]4C(=O)N[C@H](C(C)C)C(=O)N5CCC[C@H]5C(=O)N(C)CC(=O)N(C)[C@@H](C(C)C)C(=O)O[C@@H]4C)c3nc-2c(C(=O)N[C@@H]2C(=O)N[C@H](C(C)C)C(=O)N3CCC[C@H]3C(=O)N(C)CC(=O)N(C)[C@@H](C(C)C)C(=O)O[C@@H]2C)c(N)c1=O		population PK model	human			V3	334 L/70 kg
C=CC(=O)Nc1cc(Nc2nccc(-c3cn(C4CC4)c4ccccc34)n2)c(OC)cc1N(C)CCN(C)C			BALB/c nude mouse, LU0387 xenograft, blood	oral, 40 mg/kg		P-LCR percentage	7.8 ± 0.943%
NC[C@@]1(CC(=O)O)[C@@H]2CC[C@H]3C[C@@H]2[C@@H]1C3			human, normal renal function, plasma			unbound fraction	89.9%
C[C@H](NC(=O)/C(C#N)=C/c1cccc(Br)n1)c1ccccc1		LC-MS/MS	patients, plasma	oral, 4 mg/kg, cycle 1 day 8		AUC(all)	64.2 ng·h/mL
CC1=C(Cc2cn(CCO)nn2)C(=O)c2ccccc2C1=O		square wave voltammetry	DMSO	vs Ag/AgCl (3 M KCl), together with: 0.1 M n-Bu4NPF6		half-wave potential E1/2 (second)	-1.28 V
OCc1nc2ccc(NCc3ccc(C(F)(F)F)cc3)cc2[nH]1			male Balb/c mice, kidney	oral, 10 mg/kg, 6 h	baseline: tissue over plasma	tissue/plasma ratio	12.3 ± 2

Excerpt of the above:
Compound	target or system	assay	test system	setting	scale	endpoint	value
O=C1CCC(N2Cc3cc(CO)c(F)cc3C2=O)C(=O)N1 (stereo not drawn)			cynomolgus monkey, male	oral, 0.3 mg/kg parent drug, 0.25 h		plasma concentration	0.3 ng/mL
O=c1cc(-c2ccccc2)oc2ccccc12			human plasma	median, both sexes		plasma concentration	1290 nM
